Published values gathered from unrelated publications.
Every numbered part comes from another study and shows a few of its results, in no order. Positions count from the first letter of the parent shown.

Block 1
Target: ABI1, truncated, D143A, DHFR fusion (Arabidopsis thaliana)
Method: DHFR PCA, deep sequencing
Medium: yeast
Setting: methotrexate growth selection, single substitutions
Added: (+)-ABA 2500 µM
Baseline: wild-type fitted maximum
Direction: higher = stronger binding
Starting sequence: PYL1, truncated, DHFR fusion (Arabidopsis thaliana); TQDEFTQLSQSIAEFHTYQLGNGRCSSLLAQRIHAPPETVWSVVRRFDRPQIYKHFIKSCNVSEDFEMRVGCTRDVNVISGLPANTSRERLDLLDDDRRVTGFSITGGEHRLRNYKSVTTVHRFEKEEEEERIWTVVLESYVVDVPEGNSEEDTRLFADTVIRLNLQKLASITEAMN
| Substitution | relative binding score [%] |
| --- | --- |
| T6I | 88 |
| A158H | 77.3 |
| H34E | 99 |
| T86W | 97.3 |
| R99I | 63.4 |
| F66R | 94.1 |
| S27Y | 84.3 |
| D159N | 93.9 |
| T6N | 102 |
| D92C | 84.8 |
| L138H | 80.3 |
| D159Y | 60.4 |
| E64S | 96.5 |
| V161I | 96.3 |
| V43S | 83.4 |
| D97F | 104 |

Block 2
Target: Interferon regulatory factor 7, full length, phosphomimetic (IRF7, Homo sapiens, UniProt Q92985, residues 1-503, S471D/S472D/S475D/S476D/S477D/S483D/S484D/S487D)
Method: protein-binding microarray
Form: double-stranded DNA, one strand shown
Medium: in vitro
Concentration: 2200 nM top
Setting: 60-bp whole probe
Added: salmon DNA 0.4 mg/ml
Baseline: random background probes
Direction: higher = stronger binding
Shared flanks, not repeated: GCCTAGCAC … GTCTTGATTCGCTTGACGCTGCTG
Construct (chain): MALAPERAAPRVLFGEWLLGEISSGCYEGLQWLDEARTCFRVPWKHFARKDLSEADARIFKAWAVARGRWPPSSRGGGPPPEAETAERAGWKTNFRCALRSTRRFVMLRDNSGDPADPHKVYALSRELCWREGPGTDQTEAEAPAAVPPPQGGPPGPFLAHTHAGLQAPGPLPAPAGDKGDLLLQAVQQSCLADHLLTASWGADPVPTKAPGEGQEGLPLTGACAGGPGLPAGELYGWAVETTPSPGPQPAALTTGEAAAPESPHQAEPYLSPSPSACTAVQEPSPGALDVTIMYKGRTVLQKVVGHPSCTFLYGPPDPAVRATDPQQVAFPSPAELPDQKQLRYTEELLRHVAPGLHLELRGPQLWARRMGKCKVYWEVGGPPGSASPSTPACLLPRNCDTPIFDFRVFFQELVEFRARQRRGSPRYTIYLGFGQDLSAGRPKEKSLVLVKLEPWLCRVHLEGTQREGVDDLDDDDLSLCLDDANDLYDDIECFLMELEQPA
| Oligonucleotide | fitted relative affinity [z-score] |
| --- | --- |
| TTAGGACTGCTTTTACTTTAGTGCTAG | 0.691 |
| GAAGATATCGGGTTTCGAGACGTGCTA | 1.57 |
| TTAGATCTCAGTATTGATTAGTGCTAG | 0.031 |
| AAACTAGTGTTTTTCTCCTAGTGCTAG | 0.544 |
| TTTAGCAGACTGAGAGGAACGTGCTAG | -0.673 |
| TCAATTGTGCAATCTTAAACTGTGCTA | 0.149 |
| TCAGCTTGGTGTCTCTGACTGTGCTAG | 0.461 |
| TTAGGTTTCCTTTCCCTTTGGTGCTAG | 5.01 |
| GACTGTTTCGGTATCGGGACGTGCTAG | 5.9 |
| TCAGTGCTCATGCTTCTTACTGTGCTA | 0.162 |
| ATGAGCCTCTGTTTTGAGCAGTGCTAG | 0.382 |
| GACGAAATCGGGACTGGAGACGTGCTA | -0.351 |
| GACGGACTGGGGCCTGGGGACGTGCTA | -1.07 |
| GACGGACTGGAGTATCGGGACGTGCTA | -0.839 |
| GACGGTTTCGATTTTCGGGACGTGCTA | 10.1 |
| TGCTTCCTAATTCTCTTTTCGTGCTAG | 2.69 |
| GACGAGTTCAGTCTCGAGACGTGCTAG | 0.141 |
| GATGATTTCAGACTGGAGACGTGCTAG | 0.252 |
| TTAGGACTGCTACTGCTTTCGTGCTAG | 1.01 |
| AACGGTATCGGTCTCGGGACGTGCTAG | 0.321 |
| GACGGTCTCGGACTGAGGACGTGCTAG | -0.449 |
| CTAGGTATCGGGTATCGGTTAGTGCTA | 0.538 |
| GACAATTCCAGTTTCGAGACGTGCTAG | 4.16 |
| TCAAATCTTGAGTTAGAACTGTGCTAG | -0.523 |
| GACGATATCGGGACTGCAGACGTGCTA | -0.0697 |

Block 3
Target: NFE2L3, bZIP domain (human)
Method: DHFR protein complementation
Medium: yeast
Setting: single substitutions, most at no-binding floor
Baseline: wild-type JUN-FOS pair
Direction: higher = stronger binding
Starting sequence: JUN, bZIP domain (human); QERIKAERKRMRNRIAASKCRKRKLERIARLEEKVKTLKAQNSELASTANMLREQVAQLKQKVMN; partner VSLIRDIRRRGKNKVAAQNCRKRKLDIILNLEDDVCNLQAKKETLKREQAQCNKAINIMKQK
| Substitution | binding fitness [natural log] |
| --- | --- |
| V35Q | -1.48 |
| V56W | -1.39 |
| E44P | -1.49 |
| L45M | -1.58 |
| T37K | -1.6 |
| A29I | -1.47 |
| E33R | -1.52 |
| K39F | -1.54 |
| E32T | -1.57 |
| Q41T | -1.26 |
| A49S | -1.58 |
| A40C | -1.32 |
| K36P | -1.53 |

Block 4
Target: RING finger protein unkempt homolog, zinc fingers 1-6, GST-SBP tag (UNK, Homo sapiens, UniProt Q9C0B0, residues 30-357)
Chain of UniProt Q9C0B0 (30-357, looked up): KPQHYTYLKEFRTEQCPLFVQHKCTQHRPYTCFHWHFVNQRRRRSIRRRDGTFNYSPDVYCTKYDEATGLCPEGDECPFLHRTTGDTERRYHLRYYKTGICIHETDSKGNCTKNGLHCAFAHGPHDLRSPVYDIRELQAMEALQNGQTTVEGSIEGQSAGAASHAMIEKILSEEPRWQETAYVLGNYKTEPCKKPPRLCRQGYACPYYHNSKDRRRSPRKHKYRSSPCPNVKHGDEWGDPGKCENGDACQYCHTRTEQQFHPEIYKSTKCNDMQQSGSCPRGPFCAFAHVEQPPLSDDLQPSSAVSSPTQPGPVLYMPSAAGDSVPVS
Method: RNA Bind-n-Seq
Form: RNA
Medium: in vitro
Concentration: not given
Setting: RNA with constant flanks, human and mouse sites, ends assumed
Baseline: input RNA pool
Direction: higher = stronger binding
Shared flanks, not repeated: GGGAGUUCUACAGUCCGACGAUC … CAACAGAGGAUUGAGCAUCA
| Oligonucleotide | bound/input enrichment |
| --- | --- |
| ACCCAGUUCGUGGUGCACCUGCUCAUUGGCUUCGUCUUCGUGGUGAGCGGGUUAAUUAUCAACUUCACCCAGCUGUGCACACUGGCCCUCUGGCCCAUCAGCAAGCACCUAUACCGCCGU | 0.162 ratio |
| UCACGCUCAAGCCUUAAAAAUCACAAAGGAAUCCACAUGGGGGAGAAGCCCUAUAAAUGCAGCUAUUGUGAGAAAUCUUUCAACUACAGUUCUGCCCUUGAACAACAUAAAAGGAUUCAU | 0.112 ratio |
| GCUGAAGAUGACAGCAAAAUUGAUUCAUGAAGUUUUUUGCCUCCCACGUUGGGAAGUCAUUAGUUGAACUAUUUUCACAUUGGCCCCCCACACAGGCCACUCUCUUCCCUUUCUUGGUGA | 0.325 ratio |
| UAUUGAAAAUACACCAUAUGAAUUUAGUGAAUGUGGGAAAGCUUUCAUCCUUAUUACAUCUUAUUUGAUACUAGGGAAAUCUCCUGAUUAAAUUCACAUGCAUGAUAGGCAUGUUGGAAA | 0.487 ratio |
| CCCGUUGUAUACAAAUACCUAACAGAGAAGGCAGUGAAAUGGUCACAGCAGGUAGAGCGUCACAGAGAACAUCUUAUUAACUACAUUAUAUUUUUGAGGAUCACACCGUUUCUUCCUAAU | 1.53 ratio |
| GCAGGUGUCAACUCUGAAAUGGUCAAGCUUUAUGACCUUCGUUCUUUUGAUAAGGGGCCAUUUGCUACCUUUAAGAUGCAGUAUGAUCGAACUUGUGAGUGGACAGGACUUAAAUUCAGC | 0.114 ratio |
| ACCGCAUUCAUAGUAGAAAGAGACUUCGGCGGAAUCACUAAUGGGAAACCUGAAGAUAAAUUAGGCAUUCGAGGCUCCAACACAUGUGAGGUCCAUUUUGAAAAUACCAGAGUGCCUGUG | 0.251 ratio |
| AGUAGCACUUUUGUUGUACAUUGUGUUCCAAUAAGUAUAGUAUGGAACACUUUCUCAUUUUUAGUUCCCAUAAUAUGCCAGUUUUUGCUUUCCUAGUGUUCUGUGAGUAUUAGGAUUUGG | 16.5 ratio |
| AUACAGUUAUCUCAAUAAUAAAGUUUUUUUCGAGAAGUUAUAAAUGAUUUUUUUUAAAGGAGGUAAAUAUCGAGUUCCAUGACAAUCUGACAGGACCUGGGAGACGCUGCUUCUUCCGCC | 0.27 ratio |
| GAGCCCUAUGGCUUCCGUGCCUCAGUGUUAUUCGAUACAAUGCAACACCAUCUAGCCUUGAAUAGAGAUUUGUCCACACCUGGCCUGGAGAAGGACAGUGGAGGGAAGACACCUGGUGAC | 0.445 ratio |
| CCACAGGACAUUGAGUGUUGUGGGGCCCUAGAAUACUACGACAAAGCCUUUGACCGCAUCACCACGAGGAGUGAGAAGCCACUGCGGAGCAUCAAGCGCAUCUUCCACACUGUCACCACC | 0.224 ratio |

Block 5
Target: CCND3, cyclin fold, Cln2 fusion (human)
Method: yeast growth competition, sequencing
Medium: yeast
Setting: weak parent motif
Baseline: not given
Direction: higher = stronger binding
Starting sequence: MASTL docking peptide (human); PMIAKNLMCELDE
| Substitution | normalised enrichment score |
| --- | --- |
| M2D | 0.23 |
| I3K | 0.133 |
| A4D | -0.128 |
| L11W | 0.266 |
| A4W | 0.288 |
| L7G | -0.622 |
| E10A | -0.179 |
| L11H | 0.0151 |
| N6I | 0.0487 |
| C9T | 0.00245 |
| N6M | 0.0964 |
| M8P | 0.0173 |
| L7K | 0.277 |
| D12A | 0.0344 |
| K5M | -0.226 |
| M8T | -0.124 |
| C9K | -0.104 |
| M2W | -0.00328 |
| N6K | -0.0495 |
| I3F | -0.0767 |
| C9H | -0.151 |
| I3N | 0.105 |
| K5C | -0.141 |
| A4H | 0.113 |
| C9Q | -0.109 |

Other studies, line by line
| Molecule | target | assay | test system | conditions | scale | endpoint | result |
| --- | --- | --- | --- | --- | --- | --- | --- |
| PhoQ, residues 284 288 289 292 302 303 SCEHLI | PhoP, residues 12 14 15 18 19 IQFRS (Escherichia coli, UniProt P23836) | Sort-seq, refers to: YFP reporter | E. coli | PhoQ-PhoP variant library, added: 10 µM Mg2+ | baseline: high Mg2+ state, higher = stronger signaling | fold induction | 1.52 |

Some of these lines once more (block 2):
| Oligonucleotide | fitted relative affinity [z-score] |
| --- | --- |
| TCAGTGCTCATGCTTCTTACTGTGCTA | 0.162 |
| CTAGGTATCGGGTATCGGTTAGTGCTA | 0.538 |
| TCAAATCTTGAGTTAGAACTGTGCTAG | -0.523 |
| GACGAAATCGGGACTGGAGACGTGCTA | -0.351 |
| TTAGGACTGCTACTGCTTTCGTGCTAG | 1.01 |
